Experimental data collected from several papers.
Each numbered part is a random draw from the data of one study; scales do not carry over between parts. Substitutions count along the parent as printed.

Sample 1 — method: RNA Bind-n-Seq; form: RNA; matrix: in vitro; concentration: 200 nM; setting: whole 134-nt RNA, ends assumed; with: 150 mM LiCl; baseline: input library; reading: higher = stronger binding; library: 7-deaza-guanosine replaces G
Target: Ras GTPase-activating protein-binding protein 1, full length (G3BP1, Homo sapiens, UniProt Q13283)
UniProt Q13283, sequence (whole entry, looked up): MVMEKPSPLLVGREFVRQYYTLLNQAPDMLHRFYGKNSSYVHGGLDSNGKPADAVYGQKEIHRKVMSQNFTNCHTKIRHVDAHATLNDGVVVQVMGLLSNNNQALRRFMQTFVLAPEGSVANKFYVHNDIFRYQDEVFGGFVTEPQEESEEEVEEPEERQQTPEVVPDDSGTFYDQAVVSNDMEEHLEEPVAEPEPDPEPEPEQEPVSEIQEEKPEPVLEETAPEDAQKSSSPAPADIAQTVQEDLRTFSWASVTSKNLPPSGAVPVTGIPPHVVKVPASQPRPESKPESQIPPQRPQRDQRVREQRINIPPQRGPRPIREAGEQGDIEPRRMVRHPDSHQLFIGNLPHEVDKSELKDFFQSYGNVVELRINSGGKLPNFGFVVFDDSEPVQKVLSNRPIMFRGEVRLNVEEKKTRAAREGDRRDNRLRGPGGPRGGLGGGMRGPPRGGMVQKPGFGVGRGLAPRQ
`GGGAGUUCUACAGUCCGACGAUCCAAGUCCUGUGCUACACAUCGUAUGUACCGAAUCGGGAAGGGGAAGGGGAAGGGGAAAGUAUUAUGUUACGCCGUUCGGAUCUGCACUUCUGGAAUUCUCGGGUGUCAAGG` has a log2 enrichment of -0.0958.
The log2 enrichment of `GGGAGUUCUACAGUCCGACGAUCCCUGUGCUACACAUCGUAUGUACCGAAUCGGGCCCCCCCGGGCCCCCCCGGCCCCCCCGGAAAGUAUUAUGUUACGCCGUUCGGAUCUGCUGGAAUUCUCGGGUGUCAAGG` is reported as 0.392.
`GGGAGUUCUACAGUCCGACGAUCUCAAGUCCUGUGCUACACAUCGUAUGUACCGAAUCGGGGAAGGGAAGGGGAAGGGAAAGUAUUAUGUUACGCCGUUCGGAUCUGCACUUCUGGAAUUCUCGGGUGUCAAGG` gave a log2 enrichment of -0.091.
`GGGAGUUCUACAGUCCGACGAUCUGGCCCUGGUGGCAUGCGGGGAGGAAGAGGUGGCCUCAUGGAUCGUGGUGGUCCCGGUGGAAUGUUCAGAGGUGGCCGUGGUGGAGACAGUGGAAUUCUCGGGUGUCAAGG` has a log2 enrichment of -0.327.
For `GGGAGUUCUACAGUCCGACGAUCUCCUGUGCUACACAUCGUAUGUACCGAAUCAAAGUGUGUGUGUGUGUGUGUGUGUGAAAAAAGUAUUAUGUUACGCCGUUCGGAUCUGCAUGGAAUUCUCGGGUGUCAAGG`, the log2 enrichment was -0.61.
For `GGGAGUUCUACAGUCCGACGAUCCUCAAGUCCUGUGCUACACAUCGUAUGUACCGAAUCGGGGCCGGCCGGGGCCGGAAAGUAUUAUGUUACGCCGUUCGGAUCUGCACUUCCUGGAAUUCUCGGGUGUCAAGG`, the log2 enrichment was 0.677.
For `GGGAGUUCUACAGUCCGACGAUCUCAAGUCCUGUGCUACACAUCGUAUGUACCGAAUCGGGGUUGGGUUGGGGUUGGGAAAGUAUUAUGUUACGCCGUUCGGAUCUGCACUUCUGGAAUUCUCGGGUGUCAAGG`, the log2 enrichment was -0.179.
`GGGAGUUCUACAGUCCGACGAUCAGUCCUGUGCUACACAUCGUAUGUACCGAAUCGGGAAAGGGAAAAAGGGUUUUUGGGAAAGUAUUAUGUUACGCCGUUCGGAUCUGCACUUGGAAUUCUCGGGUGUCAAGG` gave a log2 enrichment of -1.79.

Sample 2 — target: CREBL2, bZIP domain (human); method: DHFR protein complementation; matrix: yeast; baseline: wild-type JUN-FOS pair; reading: higher = stronger binding
Setting: single substitutions, most at no-binding floor
Starting sequence: JUN, bZIP domain (human); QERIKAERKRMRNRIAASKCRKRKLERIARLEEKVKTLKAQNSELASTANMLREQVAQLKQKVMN; partner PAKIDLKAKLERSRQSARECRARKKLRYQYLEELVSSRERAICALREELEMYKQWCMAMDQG
For `I28N`, the binding fitness was -1.53 natural log.
`Q55G` gave a binding fitness of -1.53 natural log.
The binding fitness of `R30S` is reported as -1.44 natural log.
`T48G` gave a binding fitness of -1.52 natural log.
`V35L` gave a binding fitness of -1.55 natural log.
`K39Y` has a binding fitness of -1.55 natural log.
For `T48V`, the binding fitness was -1.58 natural log.
For `R53P`, the binding fitness was -1.2 natural log.
With `V56T` the binding fitness was -1.56 natural log.
With `L38N` the binding fitness was -1.46 natural log.
With `R30N` the binding fitness was -1.36 natural log.
`E54H` has a binding fitness of -1.5 natural log.
`T48F` has a binding fitness of -1.3 natural log.
For `V35T`, the binding fitness was -1.49 natural log.
For `I28C`, the binding fitness was -1.17 natural log.
`L38W` has a binding fitness of -1.54 natural log.
For `E44M`, the binding fitness was -1.4 natural log.
`A57V` has a binding fitness of -1.55 natural log.
`A49G` gave a binding fitness of -1.5 natural log.
`L38I` has a binding fitness of -1.17 natural log.
For `V56P`, the binding fitness was -1.49 natural log.

Sample 3 — method: protein binding microarray; form: double-stranded DNA, one strand shown; matrix: in vitro; concentration: not given; baseline: not given; reading: higher = stronger binding
Target: Histone acetyltransferase KAT6A, winged helix 1, GST fusion (KAT6A, Homo sapiens, UniProt Q92794, residues 1-85)
Setting: 8-mer, flanks averaged, mean of 2 arrays, mostly near background
Construct (chain): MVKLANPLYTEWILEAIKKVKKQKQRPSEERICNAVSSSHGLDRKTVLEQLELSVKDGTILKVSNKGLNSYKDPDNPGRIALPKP
`AGACGTCT` has an E-score of -0.142.
`CTTCCGCA` gave an E-score of 0.101.
`CGATTGCA` has an E-score of -0.114.
`AGTATAAG` has an E-score of -0.0423.
The E-score of `GCTGAGAC` is reported as -0.0866.
For `AGTCTCAC`, the E-score was -0.0172.
`ATCCCAAC` has an E-score of -0.15.
The E-score of `AAGTCACT` is reported as 0.0654.
`AAAAGATA` has an E-score of -0.0824.
For `CCACGGTC`, the E-score was 0.0871.
For `CATCCATC`, the E-score was -0.0594.
`AGAGCGAG` gave an E-score of 0.0134.
With `ACCTGCCG` the E-score was 0.0883.
`TGTTCTAA` gave an E-score of -0.1.
For `TGTAAAAA`, the E-score was -0.27.
`TGAAGCCA` has an E-score of -0.224.
`ATCCTCTG` has an E-score of -0.288.
`GACAGTCC` has an E-score of -0.09.
`AAGAATTA` has an E-score of -0.0656.
`GCGTTAGC` gave an E-score of 0.248.
`ACATGGCG` gave an E-score of 0.215.

Sample 4 — method: DHFR PCA, deep sequencing; matrix: yeast; with: (+)-ABA 17 µM; baseline: wild-type fitted maximum; reading: higher = stronger binding
Target: ABI1, truncated, D143A, DHFR fusion (Arabidopsis thaliana)
Setting: methotrexate growth selection, single substitutions
Starting sequence: PYL1, truncated, DHFR fusion (Arabidopsis thaliana); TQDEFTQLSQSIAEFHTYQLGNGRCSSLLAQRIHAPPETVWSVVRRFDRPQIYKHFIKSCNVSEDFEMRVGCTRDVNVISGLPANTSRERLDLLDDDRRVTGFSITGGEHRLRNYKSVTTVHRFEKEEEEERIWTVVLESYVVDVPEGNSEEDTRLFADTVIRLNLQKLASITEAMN; partner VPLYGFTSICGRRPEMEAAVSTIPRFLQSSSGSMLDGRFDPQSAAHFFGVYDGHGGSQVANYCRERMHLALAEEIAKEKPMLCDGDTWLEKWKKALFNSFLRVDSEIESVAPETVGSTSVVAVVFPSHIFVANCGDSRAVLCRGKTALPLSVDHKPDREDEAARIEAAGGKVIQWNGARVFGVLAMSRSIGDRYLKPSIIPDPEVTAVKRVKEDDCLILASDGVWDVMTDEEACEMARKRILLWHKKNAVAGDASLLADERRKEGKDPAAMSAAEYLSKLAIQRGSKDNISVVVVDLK
`K58F` — result for “relative binding score”: 27%.
For `S63L`, “relative binding score” read 67.5%.
Under “relative binding score”, `V100H` is recorded as 5.57%.
Under “relative binding score”, `N85S` is recorded as 90.1%.
`K54N`: “relative binding score” -8.02%.
`Y115H` — result for “relative binding score”: 21.3%.
Under “relative binding score”, `L138S` is recorded as 14.2%.
Under “relative binding score”, `I105C` is recorded as 48.5%.
For `V62N`, “relative binding score” read -13%.
`R74Q`: “relative binding score” -12%.
Under “relative binding score”, `T119L` is recorded as 71.9%.
For `E127L`, “relative binding score” read 83.1%.
For `R155A`, “relative binding score” read 39.7%.
`E64Q` — result for “relative binding score”: 87.6%.
For `D92R`, “relative binding score” read 5.21%.
For `I33Y`, “relative binding score” read 9.5%.
`D153E`: “relative binding score” 94.4%.
`W41R` — result for “relative binding score”: 7.14%.
Under “relative binding score”, `E152Q` is recorded as 77.6%.

Sample 5 — target: CCNA1, cyclin fold, Cln2 fusion (human); method: yeast growth competition, sequencing; matrix: yeast; setting: weak parent motif; baseline: not given; reading: higher = stronger binding
Starting sequence: E2F7 docking peptide (human); SSAQRRLEIPSGG; partner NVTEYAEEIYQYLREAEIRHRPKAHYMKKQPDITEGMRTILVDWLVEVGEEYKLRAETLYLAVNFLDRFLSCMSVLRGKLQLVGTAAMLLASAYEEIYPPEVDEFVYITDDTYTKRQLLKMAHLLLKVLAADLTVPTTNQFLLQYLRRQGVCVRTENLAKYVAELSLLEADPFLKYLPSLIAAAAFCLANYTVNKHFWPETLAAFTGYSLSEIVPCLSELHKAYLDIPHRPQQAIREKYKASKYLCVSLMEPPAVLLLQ
For `R5K`, “normalised enrichment score” read -0.13.
`S11A`: “normalised enrichment score” 0.138.
Under “normalised enrichment score”, `R6A` is recorded as 0.043.
`G12A` — result for “normalised enrichment score”: -0.109.
Under “normalised enrichment score”, `R5K I9F` is recorded as 0.0242.
`R5A L7A` — result for “normalised enrichment score”: 0.127.
`Q4A` — result for “normalised enrichment score”: 0.249.
Under “normalised enrichment score”, `L7A` is recorded as 0.244.
`P10A`: “normalised enrichment score” 0.364.
For `I9L`, “normalised enrichment score” read 0.43.

Repeated from above (sample 5):
For `R5K`, “normalised enrichment score” read -0.13.
`S11A`: “normalised enrichment score” 0.138.
Under “normalised enrichment score”, `R6A` is recorded as 0.043.
`G12A` — result for “normalised enrichment score”: -0.109.
Under “normalised enrichment score”, `R5K I9F` is recorded as 0.0242.
`R5A L7A` — result for “normalised enrichment score”: 0.127.
`Q4A` — result for “normalised enrichment score”: 0.249.
Under “normalised enrichment score”, `L7A` is recorded as 0.244.
`P10A`: “normalised enrichment score” 0.364.
For `I9L`, “normalised enrichment score” read 0.43.
